# Measurements pooled from the literature.
# Every numbered part comes from another study and shows a few of its results, in no order. Substitutions count along the parent as printed.

# Series 1 — method: protein binding microarray; molecule type: double-stranded DNA, one strand shown; medium: in vitro; tested at: not given; relative to: not given; reading: higher = stronger binding
# Target: Histone acetyltransferase KAT6A, winged helix 2, GST fusion (KAT6A, Homo sapiens, UniProt Q92794, residues 85-181)
# Setting: 8-mer, flanks averaged, mean of 2 arrays, mostly near background
# Target sequence (chain): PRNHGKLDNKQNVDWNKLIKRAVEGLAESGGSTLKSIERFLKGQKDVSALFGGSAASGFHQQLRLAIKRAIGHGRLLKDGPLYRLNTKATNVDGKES
Strand,E-score
TACAAGCA,-0.046
CATTGGTC,-0.129
GAAGAGGC,-0.0372
CAACGGAA,-0.022
CCCACCTA,-0.0727
AGCGTTAG,-0.0681
ATACAGCG,-0.0126
CATAGGTA,-0.0904
TCGGGCAA,0.181
AGAATCAA,0.105
ACCTCGAG,0.0156
GAAGGATC,-0.124
CACCAAGA,0.0616
TAAGGACA,0.0392
AATATATT,0.196
ATCCCGCC,0.159
ATCCCGGG,0.0509
AAGAGTCT,-0.244
AGTCTACC,-0.165
ATTGAGTA,0.0314
GCTATGAA,0.177

# Series 2 — target: CCNB1, cyclin fold, Cln2 fusion (human); method: yeast growth competition, sequencing; medium: yeast; setting: weak parent motif; relative to: not given; reading: higher = stronger binding
# Parent: RB1 docking peptide (human); PKPLKKLRFDIEG
Change,normalised enrichment score
PKPNKKLRFDIEG [L4N],0.617
PKPLWKLRFDIEG [K5W],0.722
PKPLKDLRFDIEG [K6D],0.787
PKELKKLRFDIEG [P3E],0.629
PKPLTKLRFDIEG [K5T],0.497
PKPLKKDRFDIEG [L7D],-0.247
PKPMKKLRFDIEG [L4M],1.1
PKPLKKLWFDIEG [R8W],0.379
PKPLKKLMFDIEG [R8M],0.54
LKPLKKLRFDIEG [P1L],-0.316
PKPLQKLRFDIEG [K5Q],-0.0691
PKPLKKLRFDYEG [I11Y],0.617
PKPLLKLRFDIEG [K5L],0.401
PKPLKKLRFDIED [G13D],0.296
PKPLKKLRQDIEG [F9Q],1
PKPLMKLRFDIEG [K5M],0.0907
PKPLKKLRWDIEG [F9W],0.373

# Series 3 — method: RNA Bind-n-Seq; molecule type: RNA; medium: in vitro; tested at: 365 nM; relative to: no-protein control; reading: higher = stronger binding
# Target: RNA binding protein fox-1 homolog 2, RRM domain, GST-SBP tag (RBFOX2, Homo sapiens, UniProt O43251-10, residues 100-194)
# Setting: natural RNA segment, single round, ends assumed
# Shared flanks, not repeated: GGGAGUUCUACAGUCCGACGAUC … UGGAAUUCUCGGGUGCCAA
# Construct (chain): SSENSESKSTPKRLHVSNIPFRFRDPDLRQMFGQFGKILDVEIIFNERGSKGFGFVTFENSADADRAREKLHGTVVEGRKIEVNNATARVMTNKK
Strand,RBNS enrichment (R)
ACAGUUUGUCUCAGAGGAAUCCAAGGAUUCUUUUUCAGACAAGUUGUAGGUCCCGCAUACAUGUCCACCAGGACAUUAGACAGUCGUAAAGAUGCAGAACGAACAGUUUG,0.321
UUUUUUUAAAAUUAUGAAUCAUAUCAAGUAGUUGUUUACAUUUCUUGAAAAAAUAGGAACUCGGGCAGCAGAAUCAGAUUGGCAGAAUCUUUAGACUACACAGGCAAUAA,0.616
ACAGGCUGGAGCAGCCCAGGAGAUGGGCCUAAAAUGUUCUGGAUCCCUUGGGUCCUAGUGUUAUGUUCCAGUCUGCCCACCUGUGCUCAGGAUGCAGCCCUGGGAUCCAG,0.383
GCUGCAUUAGAUAGGAUCCUCACAUCCCAUUCAGAACCAAAACUGAUACAGUGAAACAAUUAAGGUGAGCAAAUAGUUUUAACUUUUCUUUUUUUUUUUUAAGUUUCAUU,0.79
AACCUCCUGCCUCCCAAUACCAGCAGGAGGUUCUGGGCCUCUGAACCCCCUUUCCCCACACCUCCCCCUGCUGCUGCUGCCCCAGCGUCUUGACGGGAGCAUUGGCCCCU,0.463
UUUUUGUUUUGUGUUUCUUUUUUCUUAAUUUGUGUGAAUUGUACCUAGACAGGUUACAGAUUUAAUUUUCACCUACCAAGGGACAGUCUCCUCCCUGGACAAGGCUCAGU,0.67
UUUUUUUAUAUUAAAAGGUUGAGCCAAAGCCCCCAGUGUUUGUAUUUUGAAGCCAAGCUUCACUUCUAAAGUGCCUACAGAGACUUGUAAAUGAAAAUGCAGCUCUGCAC,0.625
UCUGCUGCCAGGAAGCACAGUUUAAAAAUGCUAGUCUGGAUACAGAGAUGUUUUUGUUGCAUUGUGUUCUCAUAGCCUAUGCACAUCCUUAUGUUCUUCUAAGUAAUGCC,0.363
CAUAUGUGAAACCAGUCUCUUGUGGAGAUUGGAAAUCCUCCCUGAUAUUUGGGCAGAGCCUAAACGUGCAUGCUUGUCACUCAAACACCAGAAGUUUGAAUCAGAGGUCU,4.62
GACCCAUUCAAGGCUAGCACAGUUAAGAGAACUUCAGCUAAUUCUUAUUUUCCUGAGUUAGAUCCCAGCCCAUGCCCAGCUGGAAGGGUCUCUUUUGGGUCAAAAUCAGU,0.301
CCAGGGUCAAAGGUGAAGAAAGCAAGCUCACUGCCUGCACACGGAGAUUGUCUUUCUGCCACAGAACAGCUGCAAACGUGUCAGGAGGUUAGCUGAGAAAGAAAUCGGGC,0.959
UGUCUGAACUAACACUCCCGCGAGCACUAUACUCUUUAUACUCUGAUCCCCCUAGUUCAUCUUAAAUUUGUCCGUGGCCCUGGCAAGAUAGCGUACACAAGAUUCCAUGA,1.26

# Series 4 — method: protein-binding microarray; molecule type: double-stranded DNA, one strand shown; medium: in vitro; tested at: 250 nM; setting: 60-bp whole probe; together with: salmon DNA 0.4 mg/ml; relative to: random background probes; reading: higher = stronger binding; shared flanks, not repeated: GCCTAGCAC … GTCTTGATTCGCTTGACGCTGCTG
# Target: Interferon regulatory factor 7, full length, phosphomimetic (IRF7, Homo sapiens, UniProt Q92985, residues 1-503, S101K/S471D/S472D/S475D/S476D/S477D/S483D/S484D/S487D)
# UniProt Q92985, sequence (whole entry, unmodified, looked up): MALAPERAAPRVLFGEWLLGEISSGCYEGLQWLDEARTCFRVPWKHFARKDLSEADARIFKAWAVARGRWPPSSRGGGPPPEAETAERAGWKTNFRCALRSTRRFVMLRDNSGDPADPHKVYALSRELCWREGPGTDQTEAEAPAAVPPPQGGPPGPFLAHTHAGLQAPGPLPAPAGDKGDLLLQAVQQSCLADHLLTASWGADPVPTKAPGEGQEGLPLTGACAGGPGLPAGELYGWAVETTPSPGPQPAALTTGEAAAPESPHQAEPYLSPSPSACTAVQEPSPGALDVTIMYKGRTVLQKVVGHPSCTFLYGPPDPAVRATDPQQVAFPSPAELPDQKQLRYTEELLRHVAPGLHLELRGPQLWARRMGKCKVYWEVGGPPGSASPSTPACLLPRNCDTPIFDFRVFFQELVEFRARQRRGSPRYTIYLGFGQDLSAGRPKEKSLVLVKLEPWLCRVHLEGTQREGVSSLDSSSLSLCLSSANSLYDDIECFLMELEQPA
Strand,log fluorescence [z-score]
GCTCCTTTTAATTTTTAACGGTGCTAG,2.34
GTGAACCGGTCTCTCAGACCGTGCTAG,0.151
GACCATATCAGACTGGAGACGTGCTAG,0.149
GACGAACTGGGTATCGGGACGTGCTAG,-0.16
TCAGATGTGTATATGACACTGTGCTAG,-0.489
TTAGATTCCAGATTCGATTAGTGCTAG,4.9
TTAGGACTGCTTTACCTTTAGTGCTAG,1.8
TTAAGTTTCCTTTCCCTTTAGTGCTAG,5.54
GACGGTCTCGGAATCGGGACGTGCTAG,1.66
GACGTTATCGACACTGGGGACGTGCTA,-0.176
TTAGGTTTCGGGACTCGGTTAGTGCTA,5.86
GACGGTTTCGACACGGGGGACGTGCTA,5.04
GTGGGTTTGAGTCTTCTCCTGTGCTAG,-0.921
ACCTTTGTTTTTTTCTATATGTGCTAG,1.43
GATTATAAAATGTGTGTTTGGTGCTAG,0.595
CCAGGAAAAGGGATTCAGTTGTGCTAG,0.248
GACGGTCTCGTTATCCTGACGTGCTAG,3.43
TTAGGACTGAGTCTCGGTTAGTGCTAG,1.43
GACGGTCTCGATTTCGGGACGTGCTAG,4.65
TGGCTTTCCTTTATGTCCTGGTGCTAG,0.702
TCAACTCTCTGCTTGTAACTGTGCTAG,-0.0459
GACGATTTCGGTTTCGAGACGTGCTAG,7.4
GACGGACTGGTCTTTCGGGACGTGCTA,-0.834
TTATGTTTCGGACTGGGTTAGTGCTAG,1.54
TTAGGACTGCTTAACCTTTAGTGCTAG,0.21

# Series 5 — method: RNA Bind-n-Seq; molecule type: RNA; medium: in vitro; tested at: 200 nM; setting: whole 134-nt RNA, ends assumed; together with: 150 mM KCl; relative to: input library; reading: higher = stronger binding
# Target: Ras GTPase-activating protein-binding protein 1, full length (G3BP1, Homo sapiens, UniProt Q13283)
# UniProt Q13283, sequence (whole entry, looked up): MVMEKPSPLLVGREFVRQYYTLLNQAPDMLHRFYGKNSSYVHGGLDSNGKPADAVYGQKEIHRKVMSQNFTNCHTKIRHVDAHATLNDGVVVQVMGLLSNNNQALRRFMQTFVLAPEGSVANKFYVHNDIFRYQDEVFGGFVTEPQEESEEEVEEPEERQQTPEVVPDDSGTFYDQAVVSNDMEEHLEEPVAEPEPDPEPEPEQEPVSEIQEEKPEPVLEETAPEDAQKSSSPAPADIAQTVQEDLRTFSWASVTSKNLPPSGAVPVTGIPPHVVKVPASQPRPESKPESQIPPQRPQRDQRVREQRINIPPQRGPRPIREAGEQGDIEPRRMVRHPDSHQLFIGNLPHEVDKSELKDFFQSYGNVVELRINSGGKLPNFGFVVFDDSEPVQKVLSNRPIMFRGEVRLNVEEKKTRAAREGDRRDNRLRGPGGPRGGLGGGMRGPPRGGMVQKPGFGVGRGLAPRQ
# Shared flanks, not repeated: GGGAGUUCUACAGUCCGACGAUC … UGGAAUUCUCGGGUGUCAAGG
Strand,log2 enrichment
AAGUCCUGUGCUACACAUCGUAUGUACCGAAUCGGUUUUUGGAAAGGAAAAAAAGGAAAGUAUUAUGUUACGCCGUUCGGAUCUGCACUU,-1.1
GCAGGAAGUAAAAACAAAUGGAAAUGCUUCGGAUAGUGGCAGGGGUGGGGGUUGCUUAGGAAAGGGUGGGAUGGGAGUGGGUAAAGAGUU,1.05
UCAAGUCCUGUGCUACACAUCGUAUGUACCGAAUCGGAAGGGGAAGGGGAAGGGAAAGUAUUAUGUUACGCCGUUCGGAUCUGCACUUCC,1.04
UCAAGUCCUGUGCUACACAUCGUAUGUACCGAAUCGGAAAAAGGAAAAAGGAGGAAAGUAUUAUGUUACGCCGUUCGGAUCUGCACUUCC,-0.827
UUUGCUUGCAGUAUCUGUUUCUCUUCCUAGGCUCAAGUUGGUGACCCAAGCCUAUUGUAAACAAGUGAUUAUCUCAAAGGGAGAUGCCAA,-0.206
CCUCAAGUCCUGUGCUACACAUCGUAUGUACCGAAUCGGGUGGGUGGUGGGGAAAGUAUUAUGUUACGCCGUUCGGAUCUGCACUUCCAG,1.06
UCCUGUGCUACACAUCGUAUGUACCGAAUCGGGGUGGGGAAAAAAAGGGGUUUUUGGGGAAAGUAUUAUGUUACGCCGUUCGGAUCUGCA,0.76
AAGUCCUGUGCUACACAUCGUAUGUACCGAAUCGGGUGGGAAAGGGUUUUUUUGGGAAAGUAUUAUGUUACGCCGUUCGGAUCUGCACUU,0.103
GCAGGAAGUAAAAACAAAUGGAAAUGCUUCGGAUAGUGGCAGGGGUGGGGGUUGCUAAGGAAAGGGUGAAAUGGGAGUGGGUAAAGAGUU,0.618
CCUGUGCUACACAUCGUAUGUACCGAAUCGGGGAAAGGGGUUUUUUUGGGGAAAAAGGGGAAAGUAUUAUGUUACGCCGUUCGGAUCUGC,0.211
UCAAGUCCUGUGCUACACAUCGUAUGUACCGAAUCGGGAGGGUUUUUGGGAGGGAAAGUAUUAUGUUACGCCGUUCGGAUCUGCACUUCC,0.772
UAGAUAUCCAUAGAAAAGAGAACUCUGGAGCUGCAGAGAAGCCUGUCACCAUCCAUGCCACCCCAGAGGGGACUUCUGAAGCAUGCCGCA,-0.524
UCCUUCCUUUUUUUGUCUUAAACAUAGGACAUGGAUUUGAUUGACAUACUUUGGAGGCAAGAUAUAGAUCUUGGAGUAAGUCGAGAAGUA,-0.21
GUCCUGUGCUACACAUCGUAUGUACCGAAUCGGGGUUUUUGGGGUUUUUGGUUUUUGGGAAAGUAUUAUGUUACGCCGUUCGGAUCUGCA,-0.509

# Some of these lines once more (series 1):
Strand,E-score
TAAGGACA,0.0392
ATTGAGTA,0.0314
CATAGGTA,-0.0904
ATCCCGCC,0.159
TCGGGCAA,0.181
CATTGGTC,-0.129
CAACGGAA,-0.022
ATCCCGGG,0.0509
CACCAAGA,0.0616
ACCTCGAG,0.0156
AGAATCAA,0.105
